Experimental data of several laboratories.
Each numbered part is a random draw from the data of one study; scales do not carry over between parts.
UniProt Q9UF33, sequence (whole entry, looked up): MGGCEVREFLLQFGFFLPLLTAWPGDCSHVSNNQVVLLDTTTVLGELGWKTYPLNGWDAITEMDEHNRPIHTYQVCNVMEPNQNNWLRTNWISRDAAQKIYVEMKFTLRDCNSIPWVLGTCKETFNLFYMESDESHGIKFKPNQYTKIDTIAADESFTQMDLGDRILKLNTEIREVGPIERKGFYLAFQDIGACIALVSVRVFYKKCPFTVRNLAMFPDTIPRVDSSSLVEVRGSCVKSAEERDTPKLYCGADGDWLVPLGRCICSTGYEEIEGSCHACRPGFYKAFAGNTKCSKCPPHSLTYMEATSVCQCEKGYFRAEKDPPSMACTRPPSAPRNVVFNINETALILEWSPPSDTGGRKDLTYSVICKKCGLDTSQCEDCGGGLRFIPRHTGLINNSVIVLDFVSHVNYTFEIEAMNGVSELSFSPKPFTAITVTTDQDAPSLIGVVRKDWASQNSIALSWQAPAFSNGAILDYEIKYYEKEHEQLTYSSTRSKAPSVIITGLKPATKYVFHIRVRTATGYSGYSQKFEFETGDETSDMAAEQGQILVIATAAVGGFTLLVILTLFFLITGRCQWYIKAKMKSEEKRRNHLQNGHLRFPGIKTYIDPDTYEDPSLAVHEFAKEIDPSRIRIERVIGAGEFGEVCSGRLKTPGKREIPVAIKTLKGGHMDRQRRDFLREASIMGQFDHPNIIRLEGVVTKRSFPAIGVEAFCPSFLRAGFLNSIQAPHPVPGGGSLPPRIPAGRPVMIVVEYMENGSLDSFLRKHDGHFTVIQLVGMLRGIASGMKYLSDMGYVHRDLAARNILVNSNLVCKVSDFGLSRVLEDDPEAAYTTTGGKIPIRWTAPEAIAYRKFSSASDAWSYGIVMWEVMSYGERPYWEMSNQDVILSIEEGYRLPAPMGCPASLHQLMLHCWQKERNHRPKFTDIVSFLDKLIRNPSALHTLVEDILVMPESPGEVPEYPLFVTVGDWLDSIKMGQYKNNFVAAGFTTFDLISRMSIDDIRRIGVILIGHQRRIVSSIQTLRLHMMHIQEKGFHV

Series 1 — method: competition protein-binding microarray; form: double-stranded DNA, one strand shown; matrix: in vitro; concentration: 2 µM; with: Pho4 competitor, 0.05 µM; direction: higher = stronger binding; quantity: fluorescence intensity; shared flanks, not repeated: … GTCTTGATTCGCTTGACGCTGCTG
Target: Centromere-binding protein 1, full length, His-tagged (CBF1, Saccharomyces cerevisiae, UniProt P17106, residues 1-351)
UniProt P17106, sequence (whole entry, looked up): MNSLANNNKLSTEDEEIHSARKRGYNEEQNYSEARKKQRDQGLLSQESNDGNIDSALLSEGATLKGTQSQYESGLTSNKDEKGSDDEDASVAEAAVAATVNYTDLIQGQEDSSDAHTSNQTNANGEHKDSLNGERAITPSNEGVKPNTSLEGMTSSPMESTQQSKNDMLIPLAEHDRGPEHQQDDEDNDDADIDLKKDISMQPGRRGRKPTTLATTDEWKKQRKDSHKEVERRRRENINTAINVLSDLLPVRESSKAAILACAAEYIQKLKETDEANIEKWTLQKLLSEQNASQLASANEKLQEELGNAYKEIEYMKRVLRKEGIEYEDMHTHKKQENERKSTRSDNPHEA
Notes: whole 60-bp probe, lowest competitor level
TATTATAATACTCAACACGTGACTCGAGCCTTCCCA: 10700 a.u.
TGCGCAACAACTTTTCACGTGCTCTTATGTCTAGAA: 1720 a.u.
CGTCCTAGTGATTGTTATGTGGGTGCCATGAGGAAG: 92 a.u.
CATACCCAACCTTGCCTCGTGGGTGAAGATATTTGT: 99.7 a.u.
AACTATGCTATAAAAAACGTGACTCGGGTTCTCAGT: 1590 a.u.
CATACCCAACCTTGGGTCGTGGGTGAAGATATTTGT: 62.8 a.u.
TGTGGATCATATCTCATATCTTCACATATACGAACA: 72.3 a.u.
CCGTAGGGACTTTTGCACGTTATTATGGGAATATCA: 139 a.u.

Series 2 — method: RNA Bind-n-Seq; form: RNA; matrix: in vitro; concentration: 365 nM; reference: no-protein control; direction: higher = stronger binding; quantity: RBNS enrichment (R)
Target: RNA binding protein fox-1 homolog 2, RRM domain, GST-SBP tag (RBFOX2, Homo sapiens, UniProt O43251-10, residues 100-194)
Notes: natural RNA segment, single round, ends assumed
Shared flanks, not repeated: GGGAGUUCUACAGUCCGACGAUC … UGGAAUUCUCGGGUGCCAA
Target sequence (chain): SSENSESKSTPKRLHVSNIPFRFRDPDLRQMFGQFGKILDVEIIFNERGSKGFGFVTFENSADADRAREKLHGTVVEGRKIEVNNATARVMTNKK
CUGUCCCCUCACCCCCUCUCCUGUAUUUCUCAGGUCCAGUUCAAAUCUAAAAUUCUACUUUUAGAGUUGAAACAGAGUAAUAACUUAUCUAACCCUCUUUUCCUACAAAG: 0.582
UUUUGUUUUCCAUUGAGUGUACACUACUGAAUAAGUGUAGGAGUUUUAUGUUUACCAUGUGAGUCCUGCAACACUAAAGAUAUUUUGAAUAUCAGUCAUGAUGGCAAUUU: 0.363
CUGCCGAGCAAAGGGAACGUCCUCAGAUUUCCGUCCAUUUCAUUUCUUCAUUAGAGUAAACAGUGGGACUUGGGAGGAUUAGUCUGGUGUCUAUUCUGGGCUAGAGAGAU: 0.274
UAGCCAUUUUAUUUUUUAAGAAACUGCUAAUACUUUCUCCCUAAUGGAAGCCCUGAUCCCCCAGAGAGCUACAGGUCUGCUCCCGACGGGCCUCGGGCCUGACCCGUCCA: 0.417
AGCAGUAUAGGACUGUUGAACAGCCUGGUGUGUCAGGACCCCCAAAUGUCACUUCUGCCUAAAGCAUGUAUGUCACCUAUUUUUUUCUUCAAUAAAGAAAUUUAACAGCC: 5.42
GCACUUUGAGUAUCUGAAGAGUGAGAGCAUUCAUGUUUGACAGGUCCUGCUUCCCACUAUCCUUUUCCUGUUAUUAUUCAAAUUUUACACAAGGACUAAUCCUGGGUGUC: 0.782
GUUGCAAUAUAAAAGCCCUGGUGCACCUGAAUUUACUCCUGGCCUUACUAAUGAUUCAUAAUGUGAUCUUGAGAAAUGUGUUUAAGCUUUCUGAGUCUUAACCUCCUUGU: 0.742
AUGUUCUAACAGCAUCUGCCUCUAUUCAAUUUAAUUCUUAUUUCUGUGUUACUCAUGUACAUUGGUCUUUCUACAUAGUUAUUCUAUCACUGGCAAUAUUUGUUCUGGUU: 1.13

Further values, each from its own experiment
C[C@@]1(Cc2ccc(C#N)cc2)C(=O)N(c2cc(Cl)cc(Cl)c2)c2ncc(C(=O)NC3(c4nc(C5CCC5)no4)CC3)n21 — remaining binding (Ephrin type-A receptor 6 (EPHA6, Homo sapiens, UniProt Q9UF33); cell-free assay, competition with immobilised ligand; 1 µM): 88%
CC(=O)O/N=C1/C(c2c(O)[nH]c3cc(Br)ccc23)=Nc2ccccc21 — remaining activity (Mitogen-activated protein kinase 9 (MAPK9, Homo sapiens, UniProt P45984); enzyme activity, inhibitor; 0.5 µM; reference: control): 90.5%

Some of these lines once more (further values, each from its own experiment):
C[C@@]1(Cc2ccc(C#N)cc2)C(=O)N(c2cc(Cl)cc(Cl)c2)c2ncc(C(=O)NC3(c4nc(C5CCC5)no4)CC3)n21 — remaining binding (Ephrin type-A receptor 6 (EPHA6, Homo sapiens, UniProt Q9UF33); cell-free assay, competition with immobilised ligand; 1 µM): 88%
CC(=O)O/N=C1/C(c2c(O)[nH]c3cc(Br)ccc23)=Nc2ccccc21 — remaining activity (Mitogen-activated protein kinase 9 (MAPK9, Homo sapiens, UniProt P45984); enzyme activity, inhibitor; 0.5 µM; reference: control): 90.5%
